# Experimental data pooled from the literature.
# A part holds a random share of what one study measured.

# Series 1 — technique: protein-binding microarray; form: double-stranded DNA, one strand shown; medium: in vitro; tested at: not given; reading: higher = stronger binding
# Target: Protein max, full length (MAX, Homo sapiens, UniProt P61244-2, residues 1-151)
# Setting: k-mer, scored over probes, only values ≥0.25
Oligonucleotide,E-score
CACGGGCA,0.283
GCACAAGC,0.27
CATGCGAG,0.337

# Series 2 — technique: protein binding microarray; form: double-stranded DNA, one strand shown; medium: in vitro; tested at: not given; relative to: not given; reading: higher = stronger binding
# Target: Histone acetyltransferase KAT6A, winged helix 2, GST fusion (KAT6A, Homo sapiens, UniProt Q92794, residues 85-181)
# Setting: 8-mer, flanks averaged, mean of 2 arrays, mostly near background
# Residues (chain): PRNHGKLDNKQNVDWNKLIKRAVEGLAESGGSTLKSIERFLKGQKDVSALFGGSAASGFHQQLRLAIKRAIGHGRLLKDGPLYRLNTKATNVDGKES
Oligonucleotide,E-score
ACGAGCTA,-0.0619
ACAGTGTG,-0.097
ACTTGCAG,-0.0947
GAAATGGC,-0.0382

# Series 3 — technique: universal PBM; form: double-stranded DNA, one strand shown; medium: in vitro; tested at: 600 nM; reading: higher = stronger binding
# Target: Sal-like protein 4, full length isoform A (SALL4, Homo sapiens, UniProt Q9UJQ4, residues 1-1053)
# Chain of UniProt Q9UJQ4 (whole entry, looked up): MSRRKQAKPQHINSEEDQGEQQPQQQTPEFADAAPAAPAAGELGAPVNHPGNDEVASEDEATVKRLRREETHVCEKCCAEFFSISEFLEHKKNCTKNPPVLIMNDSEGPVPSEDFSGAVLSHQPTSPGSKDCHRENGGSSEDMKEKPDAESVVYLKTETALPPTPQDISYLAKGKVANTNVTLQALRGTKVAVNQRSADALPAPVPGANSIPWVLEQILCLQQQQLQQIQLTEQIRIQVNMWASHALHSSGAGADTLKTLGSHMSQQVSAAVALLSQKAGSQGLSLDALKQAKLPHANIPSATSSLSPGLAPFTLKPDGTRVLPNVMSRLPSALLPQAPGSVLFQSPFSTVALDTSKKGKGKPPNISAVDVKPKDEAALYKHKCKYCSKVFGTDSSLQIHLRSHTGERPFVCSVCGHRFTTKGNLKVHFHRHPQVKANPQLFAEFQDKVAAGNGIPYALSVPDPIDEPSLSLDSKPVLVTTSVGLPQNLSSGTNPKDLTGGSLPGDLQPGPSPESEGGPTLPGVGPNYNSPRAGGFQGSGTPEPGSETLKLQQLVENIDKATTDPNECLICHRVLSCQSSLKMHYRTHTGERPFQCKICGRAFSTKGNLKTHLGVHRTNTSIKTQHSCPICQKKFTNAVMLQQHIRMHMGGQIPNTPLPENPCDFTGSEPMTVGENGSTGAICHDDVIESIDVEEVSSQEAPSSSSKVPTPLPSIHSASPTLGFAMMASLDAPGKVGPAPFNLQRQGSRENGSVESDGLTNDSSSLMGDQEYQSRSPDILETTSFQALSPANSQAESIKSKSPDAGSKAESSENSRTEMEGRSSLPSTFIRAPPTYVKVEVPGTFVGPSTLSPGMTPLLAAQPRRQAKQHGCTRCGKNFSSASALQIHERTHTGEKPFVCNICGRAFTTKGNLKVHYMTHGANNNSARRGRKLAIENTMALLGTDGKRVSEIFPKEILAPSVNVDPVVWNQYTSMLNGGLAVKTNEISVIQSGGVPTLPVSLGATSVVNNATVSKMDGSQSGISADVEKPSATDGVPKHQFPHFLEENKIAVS
# Setting: 8-mer, flanks averaged, mean of replicates
Oligonucleotide,E-score
CTCGTTTA,0.0796
CATTCAAC,0.134
AAAATGTT,0.315
GACTGGCC,-0.272

# Mixed results
Substance,target,test,test system,setting,scale,measurement,value
"PhoQ, residues 284 288 289 292 302 303 ASASEQ","PhoP, residues 12 14 15 18 19 GMGLL (Escherichia coli, UniProt P23836)","Sort-seq, refers to: YFP reporter",E. coli,"PhoQ-PhoP variant library, added: 10 µM Mg2+","relative to: high Mg2+ state, higher = stronger signaling",fold induction,2.05

# Excerpt of the above (mixed results):
Substance,target,test,test system,setting,scale,measurement,value
"PhoQ, residues 284 288 289 292 302 303 ASASEQ","PhoP, residues 12 14 15 18 19 GMGLL (Escherichia coli, UniProt P23836)","Sort-seq, refers to: YFP reporter",E. coli,"PhoQ-PhoP variant library, added: 10 µM Mg2+","relative to: high Mg2+ state, higher = stronger signaling",fold induction,2.05
